Assay results collected from several papers.
Protocols differ between the studies behind these lines. ± marks the error that the study gave.
POLB: DNA polymerase beta (POLB, Homo sapiens, UniProt P06746)
Cnr2: Cannabinoid receptor 2 (Cnr2, Mus musculus, UniProt P47936)
Chain of UniProt P47936 (whole entry, looked up): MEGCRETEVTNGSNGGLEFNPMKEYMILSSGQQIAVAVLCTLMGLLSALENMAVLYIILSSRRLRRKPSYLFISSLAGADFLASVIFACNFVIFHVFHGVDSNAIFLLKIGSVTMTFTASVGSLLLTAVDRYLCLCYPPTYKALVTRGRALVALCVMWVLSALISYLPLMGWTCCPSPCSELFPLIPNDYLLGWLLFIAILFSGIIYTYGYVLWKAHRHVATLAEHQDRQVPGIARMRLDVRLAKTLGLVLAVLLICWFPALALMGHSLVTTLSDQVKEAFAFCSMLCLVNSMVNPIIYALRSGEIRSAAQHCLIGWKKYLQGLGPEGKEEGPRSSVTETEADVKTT
CA1: Carbonic anhydrase 1 (CA1, Homo sapiens, UniProt P00915)
Chain of UniProt P00915 (whole entry, looked up): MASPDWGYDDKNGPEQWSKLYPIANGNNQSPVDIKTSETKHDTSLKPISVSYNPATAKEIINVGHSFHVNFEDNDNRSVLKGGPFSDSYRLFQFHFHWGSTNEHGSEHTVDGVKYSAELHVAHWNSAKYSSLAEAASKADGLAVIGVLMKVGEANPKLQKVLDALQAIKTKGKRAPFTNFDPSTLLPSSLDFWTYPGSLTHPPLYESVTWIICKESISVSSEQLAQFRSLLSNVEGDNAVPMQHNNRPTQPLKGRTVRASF
Urease: Urease (Canavalia ensiformis, UniProt P07374)
Chain of UniProt P07374 (whole entry, looked up): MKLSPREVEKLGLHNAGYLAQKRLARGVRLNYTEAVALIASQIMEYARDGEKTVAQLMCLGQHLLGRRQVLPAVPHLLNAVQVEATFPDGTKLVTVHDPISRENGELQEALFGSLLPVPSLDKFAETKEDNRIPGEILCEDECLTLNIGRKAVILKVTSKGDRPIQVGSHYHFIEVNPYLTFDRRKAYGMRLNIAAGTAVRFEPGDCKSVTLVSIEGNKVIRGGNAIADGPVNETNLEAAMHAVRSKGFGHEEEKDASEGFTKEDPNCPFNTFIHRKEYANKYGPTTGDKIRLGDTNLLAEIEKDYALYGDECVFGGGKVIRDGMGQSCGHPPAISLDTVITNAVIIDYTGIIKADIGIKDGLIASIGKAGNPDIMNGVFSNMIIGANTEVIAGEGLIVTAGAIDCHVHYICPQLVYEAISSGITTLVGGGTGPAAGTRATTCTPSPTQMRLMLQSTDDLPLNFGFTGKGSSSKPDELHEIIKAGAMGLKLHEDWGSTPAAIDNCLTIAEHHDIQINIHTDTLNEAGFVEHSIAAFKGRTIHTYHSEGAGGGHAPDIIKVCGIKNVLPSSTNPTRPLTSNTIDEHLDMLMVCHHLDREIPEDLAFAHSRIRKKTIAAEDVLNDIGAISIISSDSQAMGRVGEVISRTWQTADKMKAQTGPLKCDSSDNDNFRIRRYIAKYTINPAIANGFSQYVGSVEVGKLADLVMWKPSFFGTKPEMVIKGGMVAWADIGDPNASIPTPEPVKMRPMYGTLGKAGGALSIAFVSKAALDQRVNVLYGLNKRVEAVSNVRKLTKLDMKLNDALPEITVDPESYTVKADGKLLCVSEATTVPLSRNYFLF
Dipeptidyl peptidase 8: Dipeptidyl peptidase 8 (Homo sapiens, UniProt Q6V1X1)
Chain of UniProt Q6V1X1 (whole entry, looked up): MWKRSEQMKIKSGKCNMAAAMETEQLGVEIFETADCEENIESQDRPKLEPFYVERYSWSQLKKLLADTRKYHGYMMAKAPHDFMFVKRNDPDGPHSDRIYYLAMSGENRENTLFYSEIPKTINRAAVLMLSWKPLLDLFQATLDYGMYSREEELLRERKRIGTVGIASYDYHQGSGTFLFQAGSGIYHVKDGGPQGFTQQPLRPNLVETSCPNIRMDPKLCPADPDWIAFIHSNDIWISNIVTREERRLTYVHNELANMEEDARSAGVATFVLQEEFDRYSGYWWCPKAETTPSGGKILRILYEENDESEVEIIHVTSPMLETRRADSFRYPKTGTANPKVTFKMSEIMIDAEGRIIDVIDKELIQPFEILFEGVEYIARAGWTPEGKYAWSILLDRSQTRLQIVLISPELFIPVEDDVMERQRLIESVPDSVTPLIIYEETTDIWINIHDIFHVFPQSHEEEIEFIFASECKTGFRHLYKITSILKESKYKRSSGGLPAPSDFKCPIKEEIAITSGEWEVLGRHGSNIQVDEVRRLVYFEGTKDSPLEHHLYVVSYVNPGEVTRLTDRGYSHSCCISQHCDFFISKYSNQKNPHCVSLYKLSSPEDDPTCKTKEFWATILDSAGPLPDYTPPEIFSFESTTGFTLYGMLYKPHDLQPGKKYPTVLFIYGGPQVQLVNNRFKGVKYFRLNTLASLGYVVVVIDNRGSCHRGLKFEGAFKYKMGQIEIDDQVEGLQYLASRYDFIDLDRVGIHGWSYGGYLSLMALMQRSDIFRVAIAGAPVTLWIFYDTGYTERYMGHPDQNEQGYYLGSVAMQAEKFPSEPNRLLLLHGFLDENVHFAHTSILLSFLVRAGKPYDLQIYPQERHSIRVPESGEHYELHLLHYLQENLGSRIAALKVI
STING1 H232R: Stimulator of interferon genes protein (STING1, Homo sapiens, UniProt Q86WV6, H232R)
Chain of UniProt Q86WV6 (whole entry, unmodified, looked up): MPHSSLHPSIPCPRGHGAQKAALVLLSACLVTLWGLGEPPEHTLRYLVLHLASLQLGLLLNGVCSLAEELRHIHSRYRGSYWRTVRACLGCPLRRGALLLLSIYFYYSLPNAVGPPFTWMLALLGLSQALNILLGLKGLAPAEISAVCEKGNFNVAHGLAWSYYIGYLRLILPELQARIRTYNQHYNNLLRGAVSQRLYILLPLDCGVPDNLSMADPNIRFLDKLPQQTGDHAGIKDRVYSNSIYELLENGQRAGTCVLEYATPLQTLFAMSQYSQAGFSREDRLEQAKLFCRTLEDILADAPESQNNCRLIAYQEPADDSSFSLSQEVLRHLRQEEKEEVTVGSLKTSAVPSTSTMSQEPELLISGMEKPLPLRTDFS
HTR1A: 5-hydroxytryptamine receptor 1A (HTR1A, Homo sapiens, UniProt P08908)
Chain of UniProt P08908 (whole entry, looked up): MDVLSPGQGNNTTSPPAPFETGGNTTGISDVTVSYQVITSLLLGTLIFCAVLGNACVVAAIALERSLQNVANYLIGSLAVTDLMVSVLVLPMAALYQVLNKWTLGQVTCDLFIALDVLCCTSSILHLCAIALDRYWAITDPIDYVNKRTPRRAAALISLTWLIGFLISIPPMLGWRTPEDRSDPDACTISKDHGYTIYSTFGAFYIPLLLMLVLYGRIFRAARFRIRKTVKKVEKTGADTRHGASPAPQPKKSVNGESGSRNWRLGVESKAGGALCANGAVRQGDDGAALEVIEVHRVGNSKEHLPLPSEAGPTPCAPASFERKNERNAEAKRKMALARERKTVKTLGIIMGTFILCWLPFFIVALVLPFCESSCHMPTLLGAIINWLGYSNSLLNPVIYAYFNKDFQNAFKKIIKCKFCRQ
Chain of UniProt P11086 (whole entry, looked up): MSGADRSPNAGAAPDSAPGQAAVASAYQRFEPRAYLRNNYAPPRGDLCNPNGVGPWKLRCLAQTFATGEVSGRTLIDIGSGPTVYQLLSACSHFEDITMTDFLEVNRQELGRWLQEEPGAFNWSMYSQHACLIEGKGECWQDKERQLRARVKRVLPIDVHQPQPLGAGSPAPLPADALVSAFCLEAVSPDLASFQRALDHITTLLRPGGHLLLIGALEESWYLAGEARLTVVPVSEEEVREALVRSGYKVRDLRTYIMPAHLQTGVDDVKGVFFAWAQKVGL
Chain of UniProt Q92847 (whole entry, looked up): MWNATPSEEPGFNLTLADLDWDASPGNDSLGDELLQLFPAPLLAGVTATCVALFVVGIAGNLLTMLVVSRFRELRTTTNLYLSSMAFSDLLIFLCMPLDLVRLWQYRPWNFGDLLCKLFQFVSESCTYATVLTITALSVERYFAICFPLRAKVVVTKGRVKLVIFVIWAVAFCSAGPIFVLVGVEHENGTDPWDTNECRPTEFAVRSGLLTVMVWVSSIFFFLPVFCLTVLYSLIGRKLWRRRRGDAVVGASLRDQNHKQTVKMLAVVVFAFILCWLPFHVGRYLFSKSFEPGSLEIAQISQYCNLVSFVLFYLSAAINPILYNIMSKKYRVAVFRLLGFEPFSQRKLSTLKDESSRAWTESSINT
Chain of UniProt P45983 (whole entry, looked up): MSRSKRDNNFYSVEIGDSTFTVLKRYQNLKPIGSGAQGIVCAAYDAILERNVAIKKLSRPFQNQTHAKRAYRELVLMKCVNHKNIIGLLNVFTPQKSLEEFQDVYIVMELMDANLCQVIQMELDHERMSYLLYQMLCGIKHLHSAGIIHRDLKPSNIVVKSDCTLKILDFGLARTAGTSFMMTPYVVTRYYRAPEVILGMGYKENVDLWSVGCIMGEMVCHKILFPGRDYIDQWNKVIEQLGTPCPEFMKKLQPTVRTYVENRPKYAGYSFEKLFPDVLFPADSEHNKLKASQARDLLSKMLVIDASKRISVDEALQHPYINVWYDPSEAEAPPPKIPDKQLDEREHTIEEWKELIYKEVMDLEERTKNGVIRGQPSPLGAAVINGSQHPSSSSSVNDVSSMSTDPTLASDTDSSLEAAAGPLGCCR
Chain of UniProt P14416 (whole entry, looked up): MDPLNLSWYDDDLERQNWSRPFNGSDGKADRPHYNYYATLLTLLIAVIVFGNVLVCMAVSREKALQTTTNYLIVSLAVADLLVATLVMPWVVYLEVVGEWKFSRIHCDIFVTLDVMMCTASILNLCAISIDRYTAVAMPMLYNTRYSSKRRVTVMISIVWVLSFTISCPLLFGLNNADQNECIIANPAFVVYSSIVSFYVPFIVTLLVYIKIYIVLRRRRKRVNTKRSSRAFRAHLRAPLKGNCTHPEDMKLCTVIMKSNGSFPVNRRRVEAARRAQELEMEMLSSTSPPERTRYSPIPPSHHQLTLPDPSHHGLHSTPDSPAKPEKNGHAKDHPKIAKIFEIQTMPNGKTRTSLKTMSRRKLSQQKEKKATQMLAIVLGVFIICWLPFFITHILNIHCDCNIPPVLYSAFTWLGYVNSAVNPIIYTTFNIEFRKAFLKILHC

The Ki of `O=P(O)(O)OP(=O)(O)OP(=O)(O)OCCCCO` is reported as > 400 µM (POLB; DNA polymerase activity, inhibitor; added: 1 mM Mg2+, poly(dA)/oligo(dT)).
With `CCOC(=O)C(CC)(CCCSCCOCCOCCOCCN)NC(=O)c1ccc(C2CC2)c(Cc2ccc(F)cc2)n1` (stereo not drawn) the Ki was 0.0028 µM (Cnr2; ligand displacement, radioligand; cell membranes).
`N#CSCCCCCCOc1ccc2c(-c3ccccc3)cc(=O)oc2c1` gave a Ki of > 100 µM (CA1; enzyme activity, inhibitor, stopped-flow).
With `COC(=O)[C@@]1(C)C=C(C(=O)NCc2cccc(C(=O)Nc3ccc(Nc4nccc(-c5cccnc5)n4)c(C)c3)c2)C(=O)CC1` the Ki was 0.0074 µM (MAPK8 (Homo sapiens, UniProt P45983); SPR two-step binding model; wild-type protein surface).
`CCOC(=O)C(CC)(CCCSCCOCCNc1ccc([N+](=O)[O-])c2nonc12)NC(=O)c1ccc(C2CC2)c(Cc2ccc(F)cc2)n1` (stereo not drawn) gave a Ki of 0.059 µM (Cnr2; ligand displacement, radioligand; cell membranes).
With `Fc1cccc(-c2cc(CN3c4ccccc4C=Cc4ccccc43)on2)c1` the Ki was 8.08 µM (Urease; enzyme activity, inhibitor).
`CCC1(CC)C(=O)N(c2cccc(CN3CCN(Cc4ccc(C)c5ccccc45)CC3)c2)C1=O` gave a Ki of 0.306 µM (Dipeptidyl peptidase 8; enzyme activity, inhibitor, fluorescence).
With `CCOC(=O)[C@](CC)(CCCSCCOCCOCCNC(=O)CCCCCN1C(=CC=CC=CC2=[N+](C)c3ccc4ccccc4c3C2(C)C)C(C)(C)c2c1ccc1ccccc21)NC(=O)c1ccc(C2CC2)c(Cc2ccc(F)cc2)n1` the Ki was 0.05 µM (Cnr2; ligand displacement, radioligand; cell membranes).
The Ki of `CCN(CC)Cc1ccc(C(=O)N(CCc2ccccc2OC)[C@@H]2CCNC2)cc1` is reported as 0.096 µM (Membrane-bound transcription factor site-1 protease (Homo sapiens, UniProt Q14703, I308A)).
`CCOC(=O)[C@@](CC)(CCCSCCOCCOCCNC(=O)OC(C)(C)C)NC(=O)c1ccc(C2CC2)c(Cc2ccc(F)cc2)n1` has a Ki of 0.552 µM (Cnr2; ligand displacement, radioligand; cell membranes).
`Fc1ccccc1-c1cc(CN2c3ccccc3C=Cc3ccccc32)on1` gave a Ki of 9.28 µM (Urease; enzyme activity, inhibitor).
`CCC1(CC)C(=O)N(c2cccc(CN3CCN(Cc4ccc(Br)c5ccccc45)CC3)c2)C1=O` gave a Ki of 0.159 µM (Dipeptidyl peptidase 8; enzyme activity, inhibitor, fluorescence).
The Ki of `CCOC(=O)C(CC)(CCCSCCOCCOCCN)NC(=O)c1ccc(C2CC2)c(Cc2ccc(F)cc2)n1` (racemic) is reported as 0.0098 µM (Cnr2; ligand displacement, radioligand; cell membranes).
The Ki of `CCCCC1(CC)C(=O)N(c2cccc(CN3CCN(Cc4ccc(Br)cc4)CC3)c2)C1=O` is reported as 1.31 µM (Dipeptidyl peptidase 8; enzyme activity, inhibitor, fluorescence).
`O=C(NCCOP(=O)(O)OP(=O)(O)OP(=O)(O)O)OCC1c2ccccc2-c2ccccc21` has a Ki of 10 µM (POLB; DNA polymerase activity, inhibitor; added: 1 mM Mn2+, poly(dA)/oligo(dT)).
`O=c1[nH]c2nc(-c3ccccc3)sc2c(=O)n1O` has a Ki of 0.0142 ± 0.0025 µM (Ketol-acid reductoisomerase (NADP(+)) (ilvC, Campylobacter jejuni subsp. jejuni serotype O:2, UniProt Q9PHN5); pre-incubation 3 h without NADPH, added: NADPH 200 µM, AL 1 mM).
For `COc1ccc(C(=O)c2c(C(=O)NCCCN(C)C)oc3ccc(Cl)cc3c2=O)cc1OC`, the Ki was 0.762 µM (GHSR (Homo sapiens, UniProt Q92847); ligand displacement, radioligand; cell membranes).
With `O=C(N[C@@H](CCCCNC(=O)c1ccc([N+](=O)[O-])o1)c1nc2ccccc2[nH]1)c1ccc(-c2ncco2)cc1` the EC50 was 9.8 µM (STING1 H232R; reporter gene, inhibitor; THP1-Dual KI-hSTING-R232; 24 h, 1 h preincubation, added: diABZI 500 nM).
The Ki of `CCOC(=O)C(CC)(CCCSCCOCCOCCN=[N+]=[N-])NC(=O)c1ccc(C2CC2)c(Cc2ccc(F)cc2)n1` (stereo not drawn) is reported as 0.052 µM (Cnr2; ligand displacement, radioligand; cell membranes).
For `Cc1cc(=O)oc2cc(OCCCCCCSC#N)ccc12`, the Ki was > 100 µM (CA1; enzyme activity, inhibitor, stopped-flow).
For `CCc1c(Cl)cccc1N1CCN(C[C@H](F)CCNC(=O)c2cc3ccccc3[nH]2)CC1`, the Ki was 2.86 µM (HTR1A; ligand displacement, radioligand; cell membranes).
`N#Cc1ccccc1-c1cc(CN2c3ccccc3C=Cc3ccccc32)on1` gave a Ki of 13.4 µM (Urease; enzyme activity, inhibitor).
For `CC1(Cc2ccccc2)C(=O)N(c2cccc(CN3CCN(Cc4ccc(Br)cc4)CC3)c2)C1=O`, the Ki was 0.0233 µM (Dipeptidyl peptidase 8; enzyme activity, inhibitor, fluorescence).
`Cn1ccc2c(N3CCN(CCCCOc4ccc5c(c4)NC(=O)CC5)CC3)cccc21` gave a Ki of 3.8 µM (HRH2 (Homo sapiens, UniProt P25021); ligand displacement, radioligand).
`CCCCCCC(=O)N[C@H]1CCOC1=O` has a Ki of 77.1 µM (CA1; enzyme activity, inhibitor, stopped-flow).
For `O=C(NCCCCOP(=O)(O)OP(=O)(O)OP(=O)(O)O)OCC1c2ccccc2-c2ccccc21`, the Ki was 71 µM (POLB; enzyme activity, inhibitor, radiometric).
For `COCCNCc1ccc(-c2cc(Cl)cc(Cl)c2)o1`, the Ki was 0.162 µM (DRD2 (Homo sapiens, UniProt P14416); ligand displacement, radioligand).
With `Nc1ncnc2c1ncn2C1OC(CN(CCCC2CNCc3c2ccc(Cl)c3Cl)CCC(N)C(=O)O)C(O)C1O` (mixture of isomers) the Ki was 0.21 µM (PNMT (Homo sapiens, UniProt P11086); enzyme activity, inhibitor, radiolabel; pH 6.0, added: [3H-methyl]SAM).
For `N#Cc1ccc(-c2cc(CN3c4ccccc4C=Cc4ccccc43)on2)cc1`, the Ki was 7.18 µM (Urease; enzyme activity, inhibitor).
For `CCOC(=O)C(CC)(CCCSCCOCCOCCOCCNc1ccc([N+](=O)[O-])c2nonc12)NC(=O)c1ccc(C2CC2)c(Cc2ccc(F)cc2)n1` (stereo not drawn), the Ki was 0.085 µM (Cnr2; ligand displacement, radioligand; cell membranes).
`CCC1(CC)C(=O)N(c2cc(O)cc(C(=O)N3CCN(Cc4ccc(Br)cc4)CC3)c2)C1=O` gave a Ki of 0.007 µM (Dipeptidyl peptidase 8; enzyme activity, inhibitor, fluorescence).
For `C#Cc1ccc(C(=O)N[C@@H](CCCCNC(=O)c2ccc([N+](=O)[O-])o2)c2nc3ccccc3[nH]2)cc1`, the EC50 was 16.3 µM (STING1 H232R; reporter gene, inhibitor; THP1-Dual KI-hSTING-R232; 24 h, 1 h preincubation, added: diABZI 500 nM).
For `COC1CN([C@H]2CC[C@H]([C@@]3(C)Oc4c(Cl)cc(C(=O)NCc5c(SC)cc(C)[nH]c5=O)c(C)c4O3)CC2)C1`, “log2 fold change” read 1.7 (RNA-seq, refers to: ENAH; human, whole blood; dose not given, 24 h; baseline: pretreatment baseline).
The Ki of `Cc1ccccc1-c1cc(CN2c3ccccc3C=Cc3ccccc32)on1` is reported as 6.59 µM (Urease; enzyme activity, inhibitor).
The Ki of `CCCC1(C)C(=O)N(c2cccc(CN3CCN(Cc4ccc(Br)cc4)CC3)c2)C1=O` is reported as 0.315 µM (Dipeptidyl peptidase 8; enzyme activity, inhibitor, fluorescence).
`CN1CCN(c2ccc3cnn(Cc4cccc5ccccc45)c3c2)CC1` has a Ki of 1.62 µM (HTR1A; ligand displacement, radioligand; cell membranes).
The Ki of `Brc1cccc(-c2cc(CN3c4ccccc4C=Cc4ccccc43)on2)c1` is reported as 4.05 µM (Urease; enzyme activity, inhibitor).
`O=C1CCc2c(ccc3ccccc23)O1` has a Ki of 46.1 µM (CA1; enzyme activity, inhibitor, stopped-flow).
For `Cc1ncsc1-c1ccc(C(C)NC(=O)C2CC(O)CN2C(=O)C(NC(=O)CCCCCCCCCCN2CCCC(Nc3ncc(Cl)c(Nc4ccccc4S(=O)(=O)C(C)C)n3)C2)C(C)(C)C)cc1` (stereo not drawn), “log2 fold change” read -1.14 (22Rv1; RNA-seq, refers to: SDHAF1 mRNA; concentration not given; baseline: DMSO).

Excerpt of the above:
The Ki of `CCOC(=O)C(CC)(CCCSCCOCCOCCN)NC(=O)c1ccc(C2CC2)c(Cc2ccc(F)cc2)n1` (racemic) is reported as 0.0098 µM (Cnr2; ligand displacement, radioligand; cell membranes).
With `CCOC(=O)[C@](CC)(CCCSCCOCCOCCNC(=O)CCCCCN1C(=CC=CC=CC2=[N+](C)c3ccc4ccccc4c3C2(C)C)C(C)(C)c2c1ccc1ccccc21)NC(=O)c1ccc(C2CC2)c(Cc2ccc(F)cc2)n1` the Ki was 0.05 µM (Cnr2; ligand displacement, radioligand; cell membranes).
With `O=C(N[C@@H](CCCCNC(=O)c1ccc([N+](=O)[O-])o1)c1nc2ccccc2[nH]1)c1ccc(-c2ncco2)cc1` the EC50 was 9.8 µM (STING1 H232R; reporter gene, inhibitor; THP1-Dual KI-hSTING-R232; 24 h, 1 h preincubation, added: diABZI 500 nM).
`CCOC(=O)C(CC)(CCCSCCOCCNc1ccc([N+](=O)[O-])c2nonc12)NC(=O)c1ccc(C2CC2)c(Cc2ccc(F)cc2)n1` (stereo not drawn) gave a Ki of 0.059 µM (Cnr2; ligand displacement, radioligand; cell membranes).
`O=C(NCCOP(=O)(O)OP(=O)(O)OP(=O)(O)O)OCC1c2ccccc2-c2ccccc21` has a Ki of 10 µM (POLB; DNA polymerase activity, inhibitor; added: 1 mM Mn2+, poly(dA)/oligo(dT)).
